# Assay results pooled from the literature.
# Protocols differ between the studies behind these lines.
# Organism: Acinetobacter baumannii
SMILES,assay,system,setting,MIC
CCCCCC[N+](C)(C)CCCCCCCCOc1cc(OCCCCCCCC[N+](C)(C)CCCCCC)cc(OCCCCCCCC[N+](C)(C)CCCCCC)c1.[Br-].[Br-].[Br-],,ATCC 17978,,4 µM
CC1(C)[C@H](NC(=O)/C(=N\OCCN)c2csc(N)n2)C(=O)N1OS(=O)(=O)O,agar dilution,ATCC 19606,,> 64 µg/mL
CCCCCCCC(=O)N[C@@H](CCN)C(=O)N[C@H](C(=O)N[C@@H](CCN)C(=O)N[C@H]1CCNC(=O)[C@H]([C@@H](C)O)NC(=O)[C@H](C)NC(=O)[C@H](CCN)NC(=O)[C@H](CC(C)C)NC(=O)[C@@H](Cc2ccccc2)NC(=O)[C@H](CCN)NC1=O)[C@@H](C)O,CLSI broth microdilution,"248-01-C.248, CAMHB","20 h, 37 °C",> 512 µg/mL
Cc1c(CN(C)C(=O)/C=C/c2cnc3c(c2)CC(N)C(=O)N3)oc2ccccc12 (stereo not shown),broth microdilution,AR-0312,,16 µg/mL
CC1(C)[C@H](NC(=O)/C(=N\OCC(=O)N2CCC[C@@H]2C(=O)O)c2nsc(N)n2)C(=O)N1OS(=O)(=O)O,agar dilution,16-16,,> 64 µg/mL
CCCCCCCCCCCC[N+](C)(C)CCCCCCCCOc1cc(OCCCCCCCC[N+](C)(C)CCCCCCCCCCCC)cc(OCCCCCCCC[N+](C)(C)CCCCCCCCCCCC)c1.[Br-].[Br-].[Br-],,ATCC 17978,,125 µM
CC[C@H]1OC(=O)[C@H](C)[C@@H](OC(=O)Cc2ccccc2Cl)[C@H](C)[C@@H](O[C@@H]2O[C@H](C)C[C@H](N(C)C)[C@H]2O)[C@](C)(OC)C[C@@H](C)C(=O)[C@H](C)[C@@H](O)[C@]1(C)O,microbial growth,ATCC19606,,> 32 µg/mL
CC(C)C[C@@H]1NC(=O)[C@@H](CC(C)C)NC(=O)[C@H](CCN)NC(=O)[C@@H](NC(=O)[C@H](CCN)NC(=O)[C@@H](N)[C@@H](C)O)CCNC(=O)[C@H]([C@@H](C)O)NC(=O)[C@H](CCN)NC(=O)[C@H](CCN)NC1=O,broth microdilution,"BAA-747, cation-adjusted Mueller-Hinton broth","18 to 20 h, 37 °C, 0.002% polysorbate 80",> 128 µg/mL
COc1ccc2ccc(O)c(/C=N/[C@H]3CCCC[C@H]3/N=C/c3c(C)cccc3O)c2c1,"bacterial growth, broth microdilution",carbapenem-resistant clinical isolate,,> 40 µM
C#CCO/N=C(\C(=O)N[C@@H]1C(=O)N(OS(=O)(=O)O)C1(C)C)c1nsc(N)n1,agar dilution,ATCC 19606,,> 64 µg/mL
CCCCCCCC(=O)N[C@@H](CN)C(=O)N[C@H](C(=O)N[C@@H](CCN)C(=O)N[C@H]1CCNC(=O)[C@H]([C@@H](C)O)NC(=O)[C@H](CCN)NC(=O)[C@H](CCN)NC(=O)[C@H]([C@@H](C)O)NC(=O)[C@@H](CC(C)C)NC(=O)[C@H](CCN)NC1=O)[C@@H](C)O,,"ATCC 17978, CAMHB","20 h, 37 °C",2 µg/mL
Oc1c(Br)cc(Br)c2nc3c(C(F)(F)F)cc(C(F)(F)F)cc3nc12,,1794,,75 µM
CCCCCCCC(=O)N[C@@H](CCN)C(=O)N[C@H](C(=O)N[C@@H](CN)C(=O)N[C@H]1CCNC(=O)[C@H]([C@@H](C)O)NC(=O)[C@H](CN)NC(=O)[C@H](CCN)NC(=O)[C@H]([C@@H](C)O)NC(=O)[C@@H](CC(C)C)NC(=O)[C@H](CCN)NC1=O)[C@@H](C)O,,"ATCC 17978, CAMHB","20 h, 37 °C",0.5 µg/mL
CC[C@H]1OC(=O)[C@H](C)[C@@H](OC(=O)Cc2ccc3c(c2)OCO3)[C@H](C)[C@@H](O[C@@H]2O[C@H](C)C[C@H](N(C)C)[C@H]2O)[C@](C)(OC)C[C@@H](C)C(=O)[C@H](C)[C@@H](O)[C@]1(C)O,microbial growth,ATCC19606 DSM30007,,16 to 32 µg/mL
COc1c(NC(=O)c2ccc(NC(=O)c3ccc(NC(=O)[C@H](Cc4c[nH]nn4)NC(=O)c4ccc(NC(=O)/C(C)=C/c5ccc(O)cc5)cc4)cc3)cc2)ccc(C(=O)O)c1O,broth microdilution,ciprofloxacin-resistant,,8 µg/mL
CC(=O)NC[C@H]1CN(c2ccc(N3CCN(C(=O)CN)CC3)c(F)c2)C(=O)O1,"microbial growth, broth dilution",ATCC19606,,> 128 µM
CCCCCCCC(=O)N[C@@H](CCN)C(=O)N[C@H](C(=O)N[C@@H](CCN)C(=O)N[C@H]1CCNC(=O)[C@H]([C@@H](C)O)NC(=O)[C@H](CCN)NC(=O)[C@H](CCN)NC(=O)[C@H](CC(C)C)NC(=O)[C@@H](Cc2ccccc2)NC(=O)[C@H](CCN)NC1=O)[C@@H](C)O,broth microdilution,ATCC 19606,"20 h, 37 °C",0.25 µg/mL
CCCCCCCC[N+](C)(C)CCCCCCCCCCOc1cc(OCCCCCCCCCC[N+](C)(C)CCCCCCCC)cc(OCCCCCCCCCC[N+](C)(C)CCCCCCCC)c1.[Br-].[Br-].[Br-],,ATCC 17978,,16 µM
CC1(C)[C@H](NC(=O)/C(=N\OC2(C(=O)O)CCCC2)c2csc(N)n2)C(=O)N1OS(=O)(=O)O,agar dilution,16-16,,> 64 µg/mL
CCCCCCn1cc[n+](CCCCCCCCCCOc2cc(OCCCCCCCCCC[n+]3ccn(CCCCCC)c3)cc(OCCCCCCCCCC[n+]3ccn(CCCCCC)c3)c2)c1.[Br-].[Br-].[Br-],,ATCC 17978,,16 µM
COc1ccc2ccc(O)c(/C=N/[C@H]3CCCC[C@H]3/N=C/c3ccccc3O)c2c1,"bacterial growth, broth microdilution",carbapenem-resistant clinical isolate,,> 40 µM
CCCCCCCC(=O)N[C@@H](CCN)C(=O)N[C@H](C(=O)N[C@@H](C)C(=O)N[C@H]1CCNC(=O)[C@H]([C@@H](C)O)NC(=O)[C@H](CCN)NC(=O)[C@H](CCN)NC(=O)[C@H](CC(C)C)NC(=O)[C@@H](Cc2ccccc2)NC(=O)[C@H](CCN)NC1=O)[C@@H](C)O,CLSI broth microdilution,"248-01-C.248, CAMHB","20 h, 37 °C",4 µg/mL
CCCCCCCC(=O)N[C@@H](CCN)C(=O)N[C@H](C(=O)N[C@@H](CCN)C(=O)N[C@H]1CCNC(=O)[C@H]([C@@H](C)O)NC(=O)[C@H](CCN)NC(=O)[C@H](CCN)NC(=O)[C@H](CC(C)C)NC(=O)[C@@H](Cc2ccccc2)NC(=O)[C@H](CCN)NC1=O)[C@@H](C)O,broth microdilution,"ATCC 19606, colistin-susceptible",,0.25 µg/mL
CCCCCCCCCCCCCCCCCCn1cc(CN(CCC(=O)NCCN(CCC(=O)NCCN(CCC(=O)NCCN(C)C)CCC(=O)NCCN(C)C)CCC(=O)NCCN(CCC(=O)NCCN(C)C)CCC(=O)NCCN(C)C)CCC(=O)NCCN(CCC(=O)NCCN(CCC(=O)NCCN(C)C)CCC(=O)NCCN(C)C)CCC(=O)NCCN(CCC(=O)NCCN(C)C)CCC(=O)NCCN(C)C)nn1,LB broth microdilution,,18 h,6 µg/mL
CC[C@H]1OC(=O)[C@H](C)[C@@H](OC(=O)Cc2ccc(N)cc2)[C@H](C)[C@@H](O[C@@H]2O[C@H](C)C[C@H](N(C)C)[C@H]2O)[C@](C)(OC)C[C@@H](C)C(=O)[C@H](C)[C@@H](O)[C@]1(C)O,microbial growth,ATCC19606,,> 32 µg/mL
CCCCCCCC(=O)N[C@@H](CCN)C(=O)N[C@H](C(=O)N[C@@H](CN)C(=O)N[C@H]1CCNC(=O)[C@H]([C@@H](C)O)NC(=O)[C@H](CCN)NC(=O)[C@H](CN)NC(=O)[C@H]([C@@H](C)O)NC(=O)[C@@H](CC(C)C)NC(=O)[C@H](CCN)NC1=O)[C@@H](C)O,,"ATCC 19606, CAMHB","20 h, 37 °C",4 µg/mL
CCCCCCCC(=O)N[C@@H](CCN)C(=O)N[C@H](C(=O)N[C@@H](CCN)C(=O)N[C@H]1CCNC(=O)[C@H]([C@@H](C)O)NC(=O)[C@H](CCN)NC(=O)[C@H](CCN)NC(=O)[C@H](CC(C)C)NC(=O)[C@@H](Cc2ccccc2)NC(=O)[C@H](C)NC1=O)[C@@H](C)O,CLSI broth microdilution,"248-01-C.248, CAMHB","20 h, 37 °C",> 512 µg/mL
CC[C@H]1OC(=O)[C@H](C)[C@@H](OC(=O)Cc2c(F)cc([N+](=O)[O-])cc2F)[C@H](C)[C@@H](O[C@@H]2O[C@H](C)C[C@H](N(C)C)[C@H]2O)[C@](C)(OC)C[C@@H](C)C(=O)[C@H](C)[C@@H](O)[C@]1(C)O,microbial growth,ATCC19606 DSM30007,,8 to 32 µg/mL
C#CCNC(=O)C(C)(C)O/N=C(\C(=O)N[C@@H]1C(=O)N(S(=O)(=O)O)[C@H]1C)c1csc(N)n1,agar dilution,16-16,,> 128 µg/mL
COc1c(NC(=O)c2ccc(NC(=O)[C@H](Cc3c[nH]nn3)NC(=O)c3ccc(NC(=O)/C(C)=C/c4ccc(O)cc4)cc3)cc2)ccc(C(=O)Nc2ccc(C(=O)O)cc2)c1O,broth microdilution,ciprofloxacin-resistant,,1 µg/mL
CN[C@H](CC(C)C)C(=O)N[C@H]1C(=O)N[C@@H](CC(N)=O)C(=O)N[C@H]2C(=O)N[C@H]3C(=O)N[C@H](C(=O)N[C@H](C(=O)NCc4cn(CCCCC(=O)N[C@H](C(=O)N[C@@H](CCN)C(=O)N[C@H]5CCNC(=O)[C@H]([C@@H](C)O)NC(=O)[C@H](CCN)NC(=O)[C@H](CCN)NC(=O)[C@H](CC(C)C)NC(=O)[C@@H](CC(C)C)NC(=O)[C@H](CCN)NC5=O)[C@@H](C)O)nn4)c4cc(O)cc(O)c4-c4cc3ccc4O)[C@H](O)c3ccc(c(Cl)c3)Oc3cc2cc(c3O[C@@H]2O[C@H](CO)[C@@H](O)[C@H](O)[C@H]2O[C@H]2C[C@](C)(N)[C@H](O)[C@H](C)O2)Oc2ccc(cc2Cl)[C@H]1O,broth microdilution,"BAA-747, cation-adjusted Mueller-Hinton broth","18 to 20 h, 37 °C, 0.002% polysorbate 80",64 µg/mL
